{"data": "Measured values pooled from the literature", "note": "Numbered parts are unrelated; each lists some results of a single study."}
{"data": "Set 1", "target": "RNA binding protein fox-1 homolog 2, RRM domain, GST-SBP tag (RBFOX2, Homo sapiens, UniProt O43251-10, residues 100-194)", "technique": "RNA Bind-n-Seq", "molecule type": "RNA", "sample": "in vitro", "concentration": "365 nM", "notes": "natural RNA segment, single round, ends assumed", "baseline": "no-protein control", "direction": "higher = stronger binding", "all sequences stand within": "GGGAGUUCUACAGUCCGACGAUC … UGGAAUUCUCGGGUGCCAA", "Residues (chain)": "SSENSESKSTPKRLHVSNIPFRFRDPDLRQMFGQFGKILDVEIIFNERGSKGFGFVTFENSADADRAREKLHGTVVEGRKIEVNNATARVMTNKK"}
{"Sequence": "CUGCAUGAGAACUAUGCACUAAUCUAUCUGAAGAAAAAAAAAAACUAUAUCAACUUUGGUAUCUACUUUCCGUUUACUUCAAUCCUUGCCUUUUUGGUCAUUGUUAUAAU", "RBNS enrichment (R)": 1.52}
{"Sequence": "AGUUGUUCAGGGUCCCCGUGUGUGUGAUAAGCAGUGCUGGCUGGCUGUCUUCAGAACUCUUGGAAAUCUUUACACAUGCGAGUGCUAACCACUUUGAGCAAGGCUGCCUU", "RBNS enrichment (R)": 0.525}
{"Sequence": "AGAUCUGUAUAUGUGGGAACAAAUAAGUAAAUAUAUAUACAUAUAUAUAUAUUUAAGUACAGUUUUCAUCAGGAGGUUUUAAAGGCCAUAUUGCUAACCUCACCAAAAGG", "RBNS enrichment (R)": 0.812}
{"Sequence": "UUGGGCCCAGGCUUCCUCCCCUCCAAGGUGAAACACUGCAGUCCCGGUGUGGUGGCUCCCCAUGCAGGACGGGCCAGGCUGGGAGUGCCGCCUUCCUGUGCCAAAUUCAG", "RBNS enrichment (R)": 0.301}
{"Sequence": "CUUUCCUUGUAUCUUUUAAACUCAGUUCUGCAUCCAACUUGAGAAGAAAAAAAGCUUCUUUCCAUAUCAAGUACCAUAUGAGUUCAUUUAAACUGCACCUUGCAGAAAUG", "RBNS enrichment (R)": 1.76}
{"Sequence": "UGAAUCUGUACAGAGCCGUACAAACCGAAGUUCUGCCUCUGAUGUACUUUGUGAAUUUGUUUCUUUGAAUUUUCAUUUUUCAUUUAGUUUUCCUUGCAUACAAAUAAGCA", "RBNS enrichment (R)": 1.91}
{"Sequence": "UGUGAGUGCCCGGCCUCCAGGUGGGGCCCCUGCCCUCUUCCAGCAGCCCAGGACACCUACGCCUCGUCCCUCGGUGCCUGGGUCCAGCCCUGUGCCCCUCUGUCCGCCUC", "RBNS enrichment (R)": 0.409}
{"Sequence": "CAAGUUGGGCAGGAUAUGGCCUACUUCCAUAGGCUUUUCUUUUUUCAGGUUUGAUGUAAGCAUGGGCUUACAUCCCCCAGGUACAUACUUUUACUUAUUGUGGGAUAACC", "RBNS enrichment (R)": 0.261}
{"Sequence": "CUAUUUAUAAGUGACUUUAAACCUUCUCUUGGCUGUUAAGAAAUGUGUUCUAGAUUUAGCUAUUUAUUGUUUGCGGCCUGCAUGCUGAAACAGUGCUUACGUUGUCUCCA", "RBNS enrichment (R)": 1.6}
{"Sequence": "UGCAAGCACAAGAACAGACACCUGGUCAGCAUGGUGCUGAAACCCCUUUCUCUUCACUGUCAUGGUGCGAGAAAAGCAUGCCAUGUCUACGAGUAGGAUCUCUUCACGGA", "RBNS enrichment (R)": 8.24}
{"Sequence": "CAUUGCAGCAGCCGCGCCCAGCCCAGGGAAGAAAGGAUGGGAAACCCCCGAGGUCUUCCUUGAACAUCAGGCUUCCAGGCCCCGUUAUCUUCGCCCCAGGAAGGGUGCAU", "RBNS enrichment (R)": 0.391}
{"Sequence": "CUGCAGAGCUGGAUCCUCAGGAGGAUAGCGAAUUAUUUUCAACCCUGGAAUAGAAACCACACACUGGCUUGCUGUGCACCAGCCACUUUGCAUCUAAUCCAAGCUUUGAA", "RBNS enrichment (R)": 0.379}
{"data": "Set 2", "target": "RING finger protein unkempt homolog, zinc fingers 1-6, GST-SBP tag (UNK, Homo sapiens, UniProt Q9C0B0, residues 30-357)", "technique": "RNA Bind-n-Seq", "molecule type": "RNA", "sample": "in vitro", "concentration": "not given", "notes": "RNA with constant flanks, human and mouse sites, ends assumed", "baseline": "input RNA pool", "direction": "higher = stronger binding", "all sequences stand within": "GGGAGUUCUACAGUCCGACGAUC … CAACAGAGGAUUGAGCAUCA", "Target sequence (chain)": "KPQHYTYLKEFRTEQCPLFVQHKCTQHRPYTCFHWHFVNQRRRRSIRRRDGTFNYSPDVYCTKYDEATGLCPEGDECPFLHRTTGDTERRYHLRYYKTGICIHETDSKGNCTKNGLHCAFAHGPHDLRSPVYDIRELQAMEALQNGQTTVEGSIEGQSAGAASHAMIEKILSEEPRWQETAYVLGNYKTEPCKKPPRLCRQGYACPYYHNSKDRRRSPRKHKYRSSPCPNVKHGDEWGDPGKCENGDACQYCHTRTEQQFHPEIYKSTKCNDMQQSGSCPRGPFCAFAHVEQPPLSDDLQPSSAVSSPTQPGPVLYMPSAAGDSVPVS"}
{"Sequence": "AUGAGAGCUCCAAAACACUUUCUUCCUGAGAUGCUAAGCAAAGUGAUCAUCCUGUCACUUGAUAGAAGUGAUGAAGAUAAAGAAAAAGCAAGCUCUUUAAUCAGUUUACUCAAACAGGAA", "bound/input enrichment [ratio]": 0.0873}
{"Sequence": "AAUAUCAACUAAAAUAUCAUAGUUCUGUGGUAGACAUUGUUUUAUAAUGAAAUAACUGCAACUAGAGAAAACUGUAUAAAAACAUUAAAUUGUCAGUAUUUUUGUAAGGUUCCAUUUUGU", "bound/input enrichment [ratio]": 0.643}
{"Sequence": "CCGACUUUGCUUUUGCAGGUCUUUCACUGCAGAUGGGGCUGCUGUGGGAGUUGGGACUUGUUUGUUUUCCUUUUUGAGUUCACGUUGGAUCCUUUCUUGUACAACUUCUGCGGAAGGACA", "bound/input enrichment [ratio]": 0.0769}
{"Sequence": "GAGGAAUUUGGUGUUGUCUCAAAUACAAGAUUGAUUGCUGCUACUACUUCUGUAUUAAAAACUAGAUUUUCAUAUGCUUUUCCAAAGGAAUUUCCUUACAGGAUGAAUCAUAUACUAGAA", "bound/input enrichment [ratio]": 0.588}
{"Sequence": "GAACAUGUCGACAAGCUGAAAAUCCCCCCUGAAGAGAUGAAGGAAAUGGAGCAGAAGUUGAUUAGAGACUUCCAAGAGUACGUGGAGCCAGGAGAAGACUUCCCAGCCUCCCCUCAGCGA", "bound/input enrichment [ratio]": 0.248}
{"Sequence": "GUUAAUCAUAGCUUGGAUUUACAGCCAGUUACUUACUCAGAACCUGCAUUUUGGUGUUCGAUAGCAUAUUAUGAAUUAAAUCAGAGGGUUGGAGAAACCUUCCAUGCAUCACAGCCCUCA", "bound/input enrichment [ratio]": 2.25}
{"Sequence": "AAAGAAAAACCACAGUCUAUUCAAACUUGUAUAGAGGUAUUUGUUGCAUUAACUAGUUUUGAGCCAAUUCCUCAUAAAUUUCUUAUUUCACAAGCCAGGAACCUCAAUGAAGUCAAACAC", "bound/input enrichment [ratio]": 0.325}
{"Sequence": "AUUGAUUUGCUUUACAAUCAUCCACACUGUGUUUUGUGGAUCUUUAAUUAUAUAUAACAAUAGUAGUCAUUUUAAAUAUAUAUUCUGAAAUCUUUGCAAAUUUUAACAGAAGAGUCGAAG", "bound/input enrichment [ratio]": 8.94}
{"Sequence": "CCUAGCAGUGGGGACAUGGGAGUAAAUCAGGGAUCCGAGGAAUCUGAGAGCCACCUCUGCUCUGACAGUACCCCUAAGAUGGAAGGCCCCCAGGCAGCCUGUGGCCUGAAGCUGGCAGGA", "bound/input enrichment [ratio]": 0.172}
{"Sequence": "GGUUUUGUUCCUGGCUUUCAGAAGAGCAAUGCCAAGACCCCUCCCAGCGUCCACAUCGUCCUCUGGCAGGAGCACCUGCCCCUCUGCCUCCCACCUGCCCCUUGCACCCCCUGCGGCCCC", "bound/input enrichment [ratio]": 0.471}
{"Sequence": "GCUCAUGCCUACCACAGCCGCUGCGUGGACCCCUGGCUCACUCAGACCCGGAAGACCUGCCCCAUUUGCAAGCAGCCUGUUCAUCGGGGUCCUGGGGACGAAGACCAAGAGGAAGAAACU", "bound/input enrichment [ratio]": 0.118}
{"data": "Set 3", "target": "PABPC1L2, full length, GST fusion (mouse, UniProt A0ABA7IW68)", "technique": "RNAcompete", "molecule type": "RNA", "sample": "in vitro", "concentration": "20 nM", "notes": "7-mer, probes averaged, single round", "baseline": "mean of 7-mers", "direction": "higher = stronger binding", "Construct (chain)": "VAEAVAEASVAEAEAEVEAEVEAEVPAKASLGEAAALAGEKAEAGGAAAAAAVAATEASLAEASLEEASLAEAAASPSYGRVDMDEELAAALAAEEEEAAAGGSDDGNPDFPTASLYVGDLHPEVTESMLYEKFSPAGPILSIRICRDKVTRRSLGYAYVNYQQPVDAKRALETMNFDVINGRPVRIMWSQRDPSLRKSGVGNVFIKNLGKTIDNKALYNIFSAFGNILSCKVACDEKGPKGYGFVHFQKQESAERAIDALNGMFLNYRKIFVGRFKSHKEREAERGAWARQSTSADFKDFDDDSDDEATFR"}
{"Sequence": "CCAACUA", "7-mer Z-score": -0.182}
{"Sequence": "CGUACAC", "7-mer Z-score": -0.199}
{"Sequence": "UCUUUUA", "7-mer Z-score": 0.385}
{"Sequence": "UUCCCCA", "7-mer Z-score": -0.38}
{"Sequence": "UAGACGG", "7-mer Z-score": 0.0442}
{"Sequence": "GUGCCGU", "7-mer Z-score": -0.255}
{"Sequence": "GAUGCAC", "7-mer Z-score": -0.224}
{"Sequence": "UGGGUAG", "7-mer Z-score": -0.0718}
{"Sequence": "GGGGCCG", "7-mer Z-score": 0.0642}
{"Sequence": "UAAGCUC", "7-mer Z-score": -0.295}
{"Sequence": "AUCCUCC", "7-mer Z-score": -0.365}
{"Sequence": "AAGCUGU", "7-mer Z-score": -0.0174}
{"Sequence": "ACAUCGU", "7-mer Z-score": -0.155}
{"Sequence": "GCUUGGG", "7-mer Z-score": 0.075}
{"Sequence": "GGACGUC", "7-mer Z-score": -0.0554}
{"Sequence": "GCGGUAG", "7-mer Z-score": 0.0895}
{"Sequence": "CUUAUGG", "7-mer Z-score": -0.222}
{"Sequence": "CCUAAAG", "7-mer Z-score": -0.0246}
{"Sequence": "GAUCUAC", "7-mer Z-score": -0.224}
{"Sequence": "CAGACAA", "7-mer Z-score": 0.396}
{"Sequence": "CAGGGUC", "7-mer Z-score": 0.109}
{"Sequence": "AAAAAGA", "7-mer Z-score": 22.6}
{"Sequence": "CAGCACU", "7-mer Z-score": -0.219}
{"Sequence": "UUACGUC", "7-mer Z-score": -0.269}
{"Sequence": "AGAGCGG", "7-mer Z-score": -0.0319}
{"data": "Set 4", "target": "Ras GTPase-activating protein-binding protein 1, C-terminal RGG region (G3BP1, Homo sapiens, UniProt Q13283)", "technique": "RNA Bind-n-Seq", "molecule type": "RNA", "sample": "in vitro", "concentration": "1 µM", "notes": "whole 134-nt RNA, ends assumed", "together with": "150 mM KCl", "baseline": "input library", "direction": "higher = stronger binding", "all sequences stand within": "GGGAGUUCUACAGUCCGACGAUC … UGGAAUUCUCGGGUGUCAAGG", "sequence of UniProt Q13283 (whole entry, looked up)": "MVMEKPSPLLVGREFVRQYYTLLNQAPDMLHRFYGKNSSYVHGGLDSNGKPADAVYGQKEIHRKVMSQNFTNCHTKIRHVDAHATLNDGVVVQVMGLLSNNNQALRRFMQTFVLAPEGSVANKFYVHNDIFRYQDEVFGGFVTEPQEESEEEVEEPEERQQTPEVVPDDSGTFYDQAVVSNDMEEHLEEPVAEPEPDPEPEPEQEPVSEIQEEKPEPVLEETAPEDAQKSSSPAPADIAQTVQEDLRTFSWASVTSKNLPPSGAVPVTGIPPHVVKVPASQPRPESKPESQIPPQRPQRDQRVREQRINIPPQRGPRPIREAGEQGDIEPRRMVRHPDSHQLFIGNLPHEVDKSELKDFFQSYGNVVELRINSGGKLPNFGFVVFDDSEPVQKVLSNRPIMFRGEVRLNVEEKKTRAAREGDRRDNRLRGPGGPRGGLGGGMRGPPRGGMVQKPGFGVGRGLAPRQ"}
{"Sequence": "AAGUCCUGUGCUACACAUCGUAUGUACCGAAUCGGGCCCCGGGCCCCGGGCCCCGGAAAGUAUUAUGUUACGCCGUUCGGAUCUGCACUU", "log2 enrichment": -0.798}
{"Sequence": "CAAGUCCUGUGCUACACAUCGUAUGUACCGAAUCAAACCCAAAUUUAAACCCAAAAAAGUAUUAUGUUACGCCGUUCGGAUCUGCACUUC", "log2 enrichment": -0.84}
{"Sequence": "UGGGAGGUGGAUUUUGUUUAUUUUUUUAGCUCAUUUCCAGGGGUGGGAAUUUUUUUCUAAUAUGUGUCAUGAAUAAAGUUGUUUUUGAAA", "log2 enrichment": 2.59}
{"Sequence": "UUCCCUGGUGUGAUUCCGUCCUGCGCGGUUGUUCUCUGGAGCAGCGUUCUUUUAUCUCCGUCCGCCUUCUCUCCUACCUAAGUGCGUGCC", "log2 enrichment": 0.483}
{"Sequence": "AAGUCCUGUGCUACACAUCGUAUGUACCGAAUCGGGCCCCGGGGCCCCGGCCCCGGAAAGUAUUAUGUUACGCCGUUCGGAUCUGCACUU", "log2 enrichment": -2.35}
{"Sequence": "GCAGGAAGUAAAAACAAAUGGAAAUGCUUCGGAUAGUGGCAGGGGUGGGGGUUUCUAAGGAAAGGGUGGGAUGGGAGUGGGUAAAGAGUU", "log2 enrichment": 0.911}
{"Sequence": "CCUCAAGUCCUGUGCUACACAUCGUAUGUACCGAAUCGGAGGGAGGGGAGGGGAAAGUAUUAUGUUACGCCGUUCGGAUCUGCACUUCCA", "log2 enrichment": -0.0344}
{"Sequence": "GCAGGAAGUAAAAACAAAUGGAAAUGCUUCGGAUAGUGGCAGGGGUGGGGGUUGCUAAGGAAAGGAAAGGAUGGGAGUGGGUAAAGAGUU", "log2 enrichment": 1.47}
{"Sequence": "UCCUCAAGUCCUGUGCUACACAUCGUAUGUACCGAAUCGGAGGGGAGGGAGGAAAGUAUUAUGUUACGCCGUUCGGAUCUGCACUUCCAG", "log2 enrichment": -0.636}
{"Sequence": "GCAGGAAGUAAAAACAAAUGGAAAUACUUCGGAUAGUGGCAGGGGUGGGGGUUGCUAAGGAAAGGGUGGGAUGGGAGUGGGUAAAGAGUU", "log2 enrichment": 2.3}
